Measurements gathered from unrelated publications.
Compare with care: the assays were run in different laboratories.
Cell line: HEK293

| SMILES | test | setting | CC50 |
| --- | --- | --- | --- |
| CC[C@H]1OC(=O)[C@H](C)[C@@H](OC(=O)Cc2ccccc2Cl)[C@H](C)[C@@H](O[C@@H]2O[C@H](C)C[C@H](N(C)C)[C@H]2O)[C@](C)(OC)C[C@@H](C)C(=O)[C@H](C)[C@@H](O)[C@]1(C)O | cell growth or viability |  | > 32 µg/mL |
| O=c1c(O)ccccc1O | cell growth or viability, MTS |  | > 100 µM |
| COc1cccc(-c2onc3nc(Nc4ccc(S(N)(=O)=O)cc4)sc23)c1O |  |  | 15.3 µM |
| CCOC(=O)c1ccc2c(c1)C1CC(C)(N2)c2c(C)nc3ccc(C(=O)OCC)cc3c21 (single isomer, unassigned) | cell growth or viability, MTT |  | > 400 µM |
| COC(=O)c1c2c(cc(O)c(=O)c1O)COC2=O | cell growth or viability, MTS |  | > 100 µM |
| CC[C@H]1OC(=O)[C@H](C)[C@@H](OC(=O)Cc2c(F)cccc2F)[C@H](C)[C@@H](O[C@@H]2O[C@H](C)C[C@H](N(C)C)[C@H]2O)[C@](C)(OC)C[C@@H](C)C(=O)[C@H](C)[C@@H](O)[C@]1(C)O | cell growth or viability |  | > 32 µg/mL |
| Cc1ccc(S(=O)(=O)n2cc3c4c2C(=O)C(N)=CC4=NCC3)cc1 | cell growth or viability, MTT | 72 h | 0.4 µM |
| CC[C@H]1OC(=O)[C@H](C)[C@@H](OC(=O)Cc2ccc(Cl)cc2)[C@H](C)[C@@H](O[C@@H]2O[C@H](C)C[C@H](N(C)C)[C@H]2O)[C@](C)(OC)C[C@@H](C)C(=O)[C@H](C)[C@@H](O)[C@]1(C)O | cell growth or viability |  | > 32 µg/mL |
| CCOC(=O)CCCc1cccc2c(-c3ccc(Oc4ccccc4)cc3)ccnc12 | cell growth or viability, MTT |  | > 400 µM |
| O=C1C(NCCc2ccc(O)cc2)=CC2=NCCc3c(Br)[nH]c1c32 | cell growth or viability, MTT | 72 h | 5 µM |
| CC[C@H]1OC(=O)[C@H](C)[C@@H](OC(=O)Cc2ccc([N+](=O)[O-])cc2)[C@H](C)[C@@H](O[C@@H]2O[C@H](C)C[C@H](N(C)C)[C@H]2O)[C@](C)(OC)C[C@@H](C)C(=O)[C@H](C)[C@@H](O)[C@]1(C)O | cell growth or viability |  | > 32 µg/mL |
| O=C1C(=O)c2[nH]cc3c2C(=C1I)NCC3 | cell growth or viability, MTT | 72 h | 50 µM |
| Cc1cc(O)c(=O)c(O)cc1C(=O)c1ccccc1 | cell growth or viability, MTS |  | > 83 µM |
| O=C1C(=O)c2[nH]cc3c2C(=C1Cl)NCC3 | cell growth or viability, MTT | 72 h | 20 µM |
| CC[C@H]1OC(=O)[C@H](C)[C@@H](OC(=O)Cc2ccc(C(F)(F)F)cc2)[C@H](C)[C@@H](O[C@@H]2O[C@H](C)C[C@H](N(C)C)[C@H]2O)[C@](C)(OC)C[C@@H](C)C(=O)[C@H](C)[C@@H](O)[C@]1(C)O | cell growth or viability |  | > 32 µg/mL |
| COC1=CC2=NCCc3c[nH]c(c32)C1=O | cell growth or viability, MTT | 72 h | 20 µM |
| O=C(N/N=C/c1ccc([N+](=O)[O-])s1)c1ccccc1I | cell growth or viability, resazurin | 48 h | > 20 µM |

A few entries again:
| SMILES | test | setting | CC50 |
| --- | --- | --- | --- |
| COC(=O)c1c2c(cc(O)c(=O)c1O)COC2=O | cell growth or viability, MTS |  | > 100 µM |
